Assay results pooled from the literature.
Lines come from different studies, so protocols differ. “And” joins repeats or separate records; there may be more than shown. ± marks the error that the study gave.
UniProt P10632, sequence (whole entry, looked up): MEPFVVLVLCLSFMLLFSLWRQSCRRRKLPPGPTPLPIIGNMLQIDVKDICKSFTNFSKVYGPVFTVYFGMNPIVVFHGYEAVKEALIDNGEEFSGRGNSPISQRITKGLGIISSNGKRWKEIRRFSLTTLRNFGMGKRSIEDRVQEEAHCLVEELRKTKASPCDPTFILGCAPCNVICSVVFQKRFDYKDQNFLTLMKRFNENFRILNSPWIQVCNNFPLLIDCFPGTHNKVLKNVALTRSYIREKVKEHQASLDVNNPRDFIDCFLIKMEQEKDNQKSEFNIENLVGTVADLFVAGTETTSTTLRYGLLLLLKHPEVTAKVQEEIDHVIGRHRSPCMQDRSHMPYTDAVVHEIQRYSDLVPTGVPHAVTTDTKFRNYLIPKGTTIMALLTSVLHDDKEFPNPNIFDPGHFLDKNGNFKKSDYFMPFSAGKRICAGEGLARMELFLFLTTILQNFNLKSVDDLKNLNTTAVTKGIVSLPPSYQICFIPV
UniProt Q92887, sequence (whole entry, looked up): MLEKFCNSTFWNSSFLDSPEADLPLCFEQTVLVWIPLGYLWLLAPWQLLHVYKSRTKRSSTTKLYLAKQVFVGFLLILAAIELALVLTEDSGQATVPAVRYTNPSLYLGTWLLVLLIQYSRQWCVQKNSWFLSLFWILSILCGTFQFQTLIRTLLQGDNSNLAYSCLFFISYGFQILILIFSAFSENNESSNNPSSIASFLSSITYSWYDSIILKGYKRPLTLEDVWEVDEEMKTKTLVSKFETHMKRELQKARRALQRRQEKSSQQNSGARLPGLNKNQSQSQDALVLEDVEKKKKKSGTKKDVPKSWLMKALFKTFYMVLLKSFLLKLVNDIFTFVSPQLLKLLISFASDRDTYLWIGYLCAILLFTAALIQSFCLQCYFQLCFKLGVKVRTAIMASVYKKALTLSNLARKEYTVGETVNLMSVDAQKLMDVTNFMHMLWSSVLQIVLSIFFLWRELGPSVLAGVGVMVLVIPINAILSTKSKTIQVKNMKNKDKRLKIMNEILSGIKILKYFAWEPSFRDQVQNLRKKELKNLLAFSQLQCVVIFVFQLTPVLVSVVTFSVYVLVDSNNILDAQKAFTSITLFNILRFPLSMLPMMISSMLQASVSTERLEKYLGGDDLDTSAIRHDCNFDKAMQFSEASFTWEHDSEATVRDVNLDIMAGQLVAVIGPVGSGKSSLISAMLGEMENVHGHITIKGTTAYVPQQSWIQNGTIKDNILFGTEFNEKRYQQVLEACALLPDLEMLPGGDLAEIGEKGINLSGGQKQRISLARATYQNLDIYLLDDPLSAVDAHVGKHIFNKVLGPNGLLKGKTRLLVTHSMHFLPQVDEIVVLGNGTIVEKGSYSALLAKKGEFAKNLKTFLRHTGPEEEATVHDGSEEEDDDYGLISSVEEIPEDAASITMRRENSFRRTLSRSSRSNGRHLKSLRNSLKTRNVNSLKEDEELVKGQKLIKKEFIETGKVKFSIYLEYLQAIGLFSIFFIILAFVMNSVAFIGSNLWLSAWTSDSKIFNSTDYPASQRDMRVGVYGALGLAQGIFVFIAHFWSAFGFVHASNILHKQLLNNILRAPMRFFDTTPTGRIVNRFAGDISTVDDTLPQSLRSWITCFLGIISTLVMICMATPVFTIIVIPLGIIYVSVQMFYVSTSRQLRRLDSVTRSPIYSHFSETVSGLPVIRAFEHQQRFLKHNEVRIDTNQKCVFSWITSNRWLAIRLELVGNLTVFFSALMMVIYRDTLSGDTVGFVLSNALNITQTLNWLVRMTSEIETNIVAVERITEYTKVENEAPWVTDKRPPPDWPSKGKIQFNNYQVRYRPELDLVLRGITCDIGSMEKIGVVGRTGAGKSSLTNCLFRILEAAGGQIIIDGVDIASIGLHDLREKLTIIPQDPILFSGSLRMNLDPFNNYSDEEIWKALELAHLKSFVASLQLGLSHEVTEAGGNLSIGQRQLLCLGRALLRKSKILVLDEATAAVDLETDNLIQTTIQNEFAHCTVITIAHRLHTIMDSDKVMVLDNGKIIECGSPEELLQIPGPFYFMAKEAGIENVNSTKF
UniProt P00761, sequence (whole entry, looked up): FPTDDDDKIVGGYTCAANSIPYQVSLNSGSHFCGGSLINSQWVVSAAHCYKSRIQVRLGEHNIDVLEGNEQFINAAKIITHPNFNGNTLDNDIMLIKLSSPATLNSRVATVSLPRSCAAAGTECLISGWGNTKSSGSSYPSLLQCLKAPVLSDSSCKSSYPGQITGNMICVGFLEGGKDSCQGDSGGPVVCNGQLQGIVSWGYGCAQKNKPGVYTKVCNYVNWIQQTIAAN

SMILES | target or system | assay | system | setting | scale | quantity | result
N#C[C@@H]1CC(F)(F)CN1C(=O)CNC(=O)c1ccnc2c(NC(=O)[C@@H](N)CCCCNC(=O)CCOCCOCCOCCOCCOCCOCCNC(=O)CN3CCN(CC(=O)[O-])CCN(CC(=O)[O-])CCN(CC(=O)[O-])CC3)cccc12.[177Lu+3] | U-87 MG tumour model | – | host not given, stomach | 24 h, tumour-bearing | – | tracer uptake | 0.05 %ID/g
O=C(c1ccc(OCCN2CCCCC2)cc1)c1c(-c2ccc(O[C@@H]3O[C@H](C(=O)O)[C@@H](O)[C@H](O)[C@H]3O)cc2)sc2cc(O)ccc12 | ABCC2 (Homo sapiens, UniProt Q92887) | substrate | Sf9 membrane vesicles | pH 7 | – | intrinsic clearance | 37.2 µL/min/mg protein
CNC(=O)C1CCCN(C(=O)C2CC3CCC2N3C(=O)[C@@H]2C[C@@H](O)CN2C(=O)NCc2cccc(Cl)c2F)C1 (mixture of isomers) | Cytochrome P450 2C8 (CYP2C8, Homo sapiens, UniProt P10632) | preincubation without NADPH | human | 0.617 µM | reference: negative control | remaining activity | 86.7% and 82.8% and 92.2%
O=C(CN1CCCCC1)Nc1ccc([C@H]2[C@@H](F)[C@@H](F)C[C@@H](F)[C@H]2F)cc1 | – | – | rat liver microsomes | 1 µM | – | hepatic clearance | 33 mL/min/kg
CCCCCCCCCCCCCCCC(=O)N[C@@H](CCC(=O)NCCCC[C@H](NC(=O)[C@H](CCC(N)=O)NC(=O)[C@H](Cc1c[nH]cn1)NC(=O)[C@@H](NC(=O)[C@H](CCCCN)NC(=O)[C@H](CC(=O)O)NC(=O)[C@H](CCSC)NC(=O)[C@H](C)NC(=O)[C@@H](NC(=O)[C@H](CO)NC(=O)[C@H](Cc1ccc(O)cc1)NC(=O)[C@H](CC(=O)O)NC(=O)[C@H](CO)NC(=O)[C@@H](NC(=O)[C@H](Cc1ccccc1)NC(=O)[C@@H](NC(=O)CNC(=O)[C@H](CCC(=O)O)NC(=O)[C@H](C)NC(=O)[C@H](Cc1ccc(O)cc1)NCC(F)(F)F)[C@@H](C)O)[C@@H](C)CC)[C@@H](C)CC)[C@@H](C)CC)C(=O)N[C@@H](CC(=O)O)C(=O)N[C@@H](Cc1ccccc1)C(=O)N[C@H](C(=O)N[C@@H](CC(N)=O)C(=O)N[C@@H](Cc1c[nH]c2ccccc12)C(=O)N[C@@H](CC(C)C)C(=O)N[C@@H](CC(C)C)C(=O)N[C@@H](C)C(=O)N[C@@H](CCC(N)=O)C(=O)N[C@@H](CCCCN)C(=O)NCC(=O)N[C@@H](CCCCN)C(=O)N[C@@H](CCCCN)C(=O)N[C@@H](CC(N)=O)C(=O)N[C@@H](CC(=O)O)C(=O)N[C@@H](Cc1c[nH]c2ccccc12)C(=O)N[C@@H](CCCCN)C(=O)N[C@@H](Cc1c[nH]cn1)C(=O)N[C@@H](CC(N)=O)C(=O)N[C@H](C(=O)N[C@H](C(=O)N[C@@H](CCC(N)=O)C(=O)O)[C@@H](C)O)[C@@H](C)CC)C(C)C)C(=O)O | Trypsin (Sus scrofa, UniProt P00761) | LC-MS, refers to: fragment 1-33 | – | 18 h, pH 8.0, 37 °C, together with: trypsin 2.5 mg/mL | – | fragment formed | 10%
O=C(Nc1cccc(N2CCNCC2)c1)c1cc(-c2ccccc2)n(-c2ccccc2)n1 | HeLa | cell growth or viability | – | – | – | CC50 | 16 µM
O=C(CN1CCOCC1)Nc1ccc([C@H]2[C@@H](F)[C@@H](F)C[C@@H](F)[C@H]2F)cc1 | – | liver microsome stability | cynomolgus liver microsomes | 1 µM | – | hepatic clearance | 6.7 mL/min/kg
O=C1C2CC3CC1CC(C(=O)N1CCN(c4ccc([N+](=O)[O-])c5ncccc45)CC1)(C3)C2 | Salmonella typhimurium | Ames test | TA1535 | 0.02 µg/well, with S9 activation | – | revertant colony count | 1 colonies/well
N#C[C@@H]1CC(F)(F)CN1C(=O)CNC(=O)c1ccnc2c(NC(=O)CCOCCOCCOCCOCCOCCOCCNC(=O)[C@H](CCCCNC(=O)CN3CCN(CC(=O)[O-])CCN(CC(=O)[O-])CCN(CC(=O)[O-])CC3)NC(=O)CCCc3ccc(I)cc3)cccc12.[177Lu+3] | U-87 MG tumour model | – | host not given, pancreas | 4 h, tumour-bearing | – | tracer uptake | 2.21 %ID/g
N#C[C@@H]1CCCN1C(=O)CNC(=O)c1ccnc2ccc(OCCCN3CCN(C(=O)CCc4ccc(O)c(CN5CCN6CC(=O)[O][Al-]([18F])([O]C(=O)C5)[O]c5ccc(CCC(=O)N7CCN(CCCOc8ccc9nccc(C(=O)NCC(=O)N%10CCC[C@H]%10C#N)c9c8)CC7)cc5C6)c4)CC3)cc12 (some centres unmarked) | U-87 MG tumour model | – | host not given, muscle | 1 h, tumour-bearing | – | tracer uptake | 2.81 %ID/g
Cc1cc(=O)c2c(O)c3c(O[C@@H]4O[C@H](CO)[C@@H](O)[C@H](O)[C@H]4O)cc(O)cc3cc2o1 | HepaRG co-cultured with HK-2 | MTT | – | 266.67 µM, 48 h | reference: untreated control | cell viability | 39.7 ± 6.21%
CC(=O)N[C@H](C(=O)N[C@H](C(=O)N[C@@H](CCCNC(=N)N)C(=O)N[C@@H](CC(N)=O)C(=O)N[C@@H](CC(=O)O)C(=O)N[C@H](C(=O)N1CCC[C@@H]1C(=O)N1CCC[C@H]1C(=O)N[C@@H](CC(=O)O)C(=O)N[C@@H](CO)C(=O)N[C@@H](CC(C)C)C(=O)N[C@@H](CC(C)C)C(=O)N[C@H](C(=O)N[C@@H](Cc1ccccc1)C(N)=O)C(C)C)C(C)C)[C@@H](C)O)C(C)C | HEK-293T | subcellular fractionation LC-MS | cytoplasmic fraction | 20 µM, 2 h | – | peptide amount per protein | not detected
O=C(Nc1ccc([C@H]2[C@@H](F)[C@@H](F)C[C@@H](F)[C@H]2F)cc1)C1CC1(F)F (some centres unmarked) | – | hepatocyte stability | cryopreserved mouse hepatocytes | 1 µM | – | hepatic clearance | 52 mL/min/kg
Nc1nc2cc(C(=O)c3ccc(F)cc3)ccc2[nH]1 | Salmonella typhimurium | Ames preincubation test | TA1537 | 156.0 µg/plate, 3 days, without S9 | – | revertants per plate | 13.3 revertants/plate
CN(C)c1cccc(-c2ccc([C@H]3[C@@H](F)[C@@H](F)C[C@@H](F)[C@H]3F)cc2)c1 | – | liver microsome stability | human liver microsomes | 1 µM, without NADPH | – | hepatic clearance | 3.9 mL/min/kg
COc1cccc(OC)c1-c1cc(C(=O)NC2(C(=O)O)C3CC4CC(C3)CC2C4)nn1-c1ccc(C(=O)N(C)CCCN(C)C(=O)[C@H](CCCCNC(=O)[C@H](CC(C)C)NC(=O)C2OC2C(=O)O)NC(=O)CN2CCN(CC(=O)[O-])CCN(CC(=O)[O-])CCN(CC(=O)[O-])CC2)cc1C(C)C.[177Lu+3] (mixture of isomers) | HT-29 tumour model | – | host not given, stomach | 4 h, tumour-bearing | – | tracer uptake | 0.198 %ID/g
O=C1NC2(CC2)COc2ncc(F)cc2[C@H]2COCCN2c2ccn3ncc1c3n2 | Salmonella typhimurium | Ames test | TA98 | 5000 µg/plate, 48 h, together with: rat liver S9 | – | revertant colonies | 19 ± 6 revertants/plate
COc1cc(/C=C/C=C2\SC(=S)NC2=O)ccc1O | HeLa | CellTiter-Glo | – | 20 µM, 24 h, unit not given | reference: untreated | viability | 0.96 and 0.754
Nc1ncc(-c2ccc(C3CCCCC3)cc2)cn1 | – | liver microsome stability | mouse liver microsomes | 1 µM | – | hepatic clearance | 61 mL/min/kg
CC(C)OCCOCc1ccc(OCC(O)CN(N=O)C(C)C)cc1 (centres unmarked) | Salmonella typhimurium | Ames test | TA98 | 1580 µg/plate, 30 % hamster S9 | reference: solvent control | revertant fold increase | 1 fold
NS(=O)(=O)c1cccc(-c2ccc([C@H]3[C@@H](F)[C@@H](F)C[C@@H](F)[C@H]3F)cc2)c1 | – | liver microsome stability | rat liver microsomes | 1 µM | – | hepatic clearance | 6.1 mL/min/kg
NC(=O)c1cc(-c2ccc3c(c2)OCCO3)n(-c2ccccc2)n1 | HeLa | cell growth or viability | – | – | – | CC50 | > 100 µM
CC(C)C[C@@H]1NC(=O)[C@H](CO)NC(=O)[C@H](CC(=O)O)NC(=O)[C@@H]2CCCN2C(=O)[C@H]2CCCN2C(=O)[C@H](C(C)C)NC(=O)[C@H](CC(=O)O)NC(=O)[C@H](CC(N)=O)NC(=O)[C@H](CCCNC(=N)N)NC(=O)[C@H]([C@@H](C)O)NC(=O)[C@H](C(C)C)NC(=O)CCNC(=O)CCNC(=O)[C@H](Cc2ccccc2)NC(=O)[C@H](C(C)C)NC(=O)[C@H](CC(C)C)NC1=O | HEK-293T | subcellular fractionation LC-MS | nuclear fraction | 20 µM, 24 h | – | peptide amount per protein | not detected
N#C[C@@H]1CC(F)(F)CN1C(=O)CNC(=O)c1ccnc2c(NC(=O)[C@H](CCCCNC(=O)CCOCCOCCOCCOCCOCCOCCNC(=O)CN3CCN(CC(=O)[O-])CCN(CC(=O)[O-])CCN(CC(=O)[O-])CC3)NC(=O)CCCc3ccc(I)cc3)cccc12.[177Lu+3] | U-87 MG tumour model | – | host not given, blood | 72 h, tumour-bearing | – | tracer uptake | 0.77 %ID/g
CCN(CC)CC#CCNc1ccnc2cc(Cl)ccc12 | Salmonella typhimurium | mini-Ames test | TA1535 | 125.0 µg/well, with rat liver S9 | – | revertants per well | 4
O=C(NC1CCOCC1)c1ccc(C2CCCCC2)cc1 | – | liver microsome stability | dog liver microsomes | 1 µM | – | hepatic clearance | 29 mL/min/kg
COc1cccc(OC)c1-c1cc(C(=O)NC2(C(=O)O)C3CC4CC(C3)CC2C4)nn1-c1ccc(C(=O)N(C)CCOCCOCCN(C)C(=O)[C@H](CCCCNC(=O)[C@H](CC(C)C)NC(=O)C2OC2C(=O)O)NC(=O)CN2CCN(CC(=O)[O-])CCN(CC(=O)[O-])CCN(CC(=O)[O-])CC2)cc1C(C)C.[177Lu+3] (mixture of isomers) | HT-29 tumour model | – | host not given, pancreas | 4 h, tumour-bearing | – | tracer uptake | 0.6 %ID/g
CNC(=O)c1ccc([C@H]2[C@@H](F)[C@@H](F)C[C@@H](F)[C@H]2F)cc1 | – | liver microsome stability | cynomolgus liver microsomes | 1 µM | – | hepatic clearance | 8.2 mL/min/kg
C=C(NC(=O)c1csc(-c2nc3c(cc2O)-c2nc(cs2)C(=O)NC(C(C)O)C(=O)NC(=C(C)OC)c2nc(cs2)C(=O)NC2c4nc(cs4)C(=O)NC(COC(=O)c4c5c6c(cccc6n4O)COC(=O)C(OC4CC(C)(O)C(N(C)C)C(C)O4)C2OC5)c2nc-3cs2)n1)C(N)=O (centres unmarked) | – | – | Sprague-Dawley rat, male, plasma | intravenous infusion, 2 mg/kg single dose | – | MRT(0-last) | 42.6 min
